Experimental data from different studies.
Every numbered part comes from another study and shows a few of its results, in no order. Changes are numbered by the printed parent chain.

Study 1 — target: CCNF, cyclin fold, Cln2 fusion (human); method: yeast growth competition, sequencing; matrix: yeast; notes: strong parent motif; relative to: not given; reading: higher = stronger binding
Starting sequence: CENPC docking peptide (human); VKTKKRLNFDDKV
| Variant | normalised enrichment score |
| --- | --- |
| K12A | 6.66 |
| T3A | 6.89 |
| K5R F9L | 5.36 |
| D10A | 1.54 |
| F9L | 0.997 |
| K5A L7A | 0.416 |
| K2A | 4.64 |
| L7A | 1.37 |
| K5A | 0.426 |
| R6A | 1.09 |

Study 2 — method: competition protein-binding microarray; form: double-stranded DNA, one strand shown; matrix: in vitro; tested at: 2 µM; together with: Cbf1 competitor, 0.05 µM; reading: higher = stronger binding; all sequences stand within: … GTCTTGATTCGCTTGACGCTGCTG
Target: Phosphate system positive regulatory protein PHO4, full length, GST-tagged (PHO4, Saccharomyces cerevisiae, UniProt P07270, residues 1-312)
Notes: whole 60-bp probe, lowest competitor level
Target sequence (chain): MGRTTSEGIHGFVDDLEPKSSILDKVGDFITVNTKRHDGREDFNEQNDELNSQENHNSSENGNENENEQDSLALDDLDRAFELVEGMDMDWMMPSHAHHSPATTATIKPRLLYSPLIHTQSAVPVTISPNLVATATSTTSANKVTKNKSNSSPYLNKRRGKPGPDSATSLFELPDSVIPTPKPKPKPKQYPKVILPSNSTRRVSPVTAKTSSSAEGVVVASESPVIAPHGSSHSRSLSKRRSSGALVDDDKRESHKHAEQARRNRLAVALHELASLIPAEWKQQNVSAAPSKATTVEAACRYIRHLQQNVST
| Oligonucleotide | fluorescence intensity |
| --- | --- |
| CTCTAATTTTACCATCACGTGCCGATTCTAGTCATT | 20700 a.u. |
| TTAGATGACTGTTAGCACGTAATGATTTGGCCATGA | 5590 a.u. |
| AAATTACTAAGTTGACATGTGGGTGACGCCGTATGA | 10400 a.u. |
| CGCTTGAAAAGGAATCATGTGCCTATTTTCCTCATT | 8420 a.u. |
| CTTTCCCGATCTTGTTGGGTGGGTGTAGCACATTTG | 4640 a.u. |
| CTTTTTCGCGGGATTGTCGTGCTTTTCAACCATTTT | 5580 a.u. |
| CTTTCCCGATCTTTTCACGTGTATTTAGCACATTTG | 15000 a.u. |
| CTCCGGCGGCCATTTTACGTGACGGAGCATCCCTTA | 3060 a.u. |
| ACTGGAAACGAGCAACACATGTCCCACTTTGCCACA | 10700 a.u. |
| CAAGAGACTCGCGACCACGTGGAACGATCCAACTAC | 17200 a.u. |
| GCATTACGAGAGAAGTGCGTGATGGCTGGAAACTAG | 6420 a.u. |
| GTCTTGTCTCATTGTCACATGACTTTCCCCACTTCA | 6240 a.u. |
| CGTCCTAGTGATTGTCACGGGACTTCCATGAGGAAG | 5490 a.u. |
| TTTACGCGCGGTGTTTTCGTGGCCGTACCGCATTGG | 4230 a.u. |
| CTTCTGTAAATTTGTCACCCTACTTGACGCGCCCCG | 4170 a.u. |
| TATTTAATGCGACAGGTGGAAATCAGGACTATGCAG | 5360 a.u. |
| CTTCTGTAAATTTGTCACGGTACTTGACGCGCCCCG | 4530 a.u. |
| GTCTTGTCTCATTGCACAGTGGGTGTCCCCACTTCA | 5170 a.u. |
| CATGGGGCGGTAGGGTTCGTGATGGTTTTTCTGCCC | 5580 a.u. |
| CGGGGTTAAGTTTGGGAGGTGGGTGGCTTGCAGCAG | 4860 a.u. |
| GCTAATCGGCTATTTGACATGATGTCTTCCTTTCCT | 5120 a.u. |

Study 3 — method: protein-binding microarray; form: double-stranded DNA, one strand shown; matrix: in vitro; tested at: 250 nM; notes: 60-bp whole probe; together with: salmon DNA 0.4 mg/ml; relative to: random background probes; reading: higher = stronger binding; all sequences stand within: GCCTAGCAC … GTCTTGATTCGCTTGACGCTGCTG
Target: Interferon regulatory factor 5, full length, phosphomimetic (IRF5, Homo sapiens, UniProt Q13568-2, residues 1-514, K96S/S451D/S453D/S456D/S462D)
| Oligonucleotide | log fluorescence |
| --- | --- |
| TTAGGACTGGTTCTCGGTTAGTGCTAG | 0.395 z-score |
| GAGATTTTCATTATTGCTTCGTGCTAG | 2.27 z-score |
| TTAGCTTCCGGTTTCGGTTAGTGCTAG | 9.94 z-score |
| TTAAGTATCCTTCTCCTTTAGTGCTAG | 0.592 z-score |
| TTAGGACTGGGACTGGGTTTGTGCTAG | -0.519 z-score |
| TTGGGTCTCCTTTTCCTTTAGTGCTAG | 0.106 z-score |
| TGTCTGTCTGTCACCCGGACGTGCTAG | 0.373 z-score |
| TTAGATCCCAGTTTCGATTAGTGCTAG | 9.72 z-score |
| TCAGTTTCCTCTTTCTTACTGTGCTAG | 2.16 z-score |
| GACGGTATCCGGTTTCGGGACGTGCTA | 2.88 z-score |
| CTTAGTATTTTTTTCCAGAGGTGCTAG | 0.453 z-score |
| CTGTTCTGCAGACTTCTGTCGTGCTAG | -0.113 z-score |
| GACGGTTTCGGTAGCGGGACGTGCTAG | 9.01 z-score |
| GAATTTCCCACTTTCACTTCGTGCTAG | 6.48 z-score |
| TCAACTCTGTTTTCGCTTACTGTGCTA | 3.74 z-score |
| TCAACTCTCTGCTTGTAACTGTGCTAG | 0.408 z-score |
| TTAGGTATCGGGTGTCGGTTAGTGCTA | 3.09 z-score |
| GAGGGTTTCGGGTATCGGGACGTGCTA | 6.44 z-score |
| CTCTTCTTTTTTTTCTTTAAGTGCTAG | 1.15 z-score |
| GACGGTTTCCTTCTCCTGATGTGCTAG | 0.871 z-score |
| TCAACCTTGAACTTCGGACTGTGCTAG | -0.0629 z-score |
| TTAGGTCTCCATTTCCTTTAGTGCTAG | 0.424 z-score |
| TGAGGTATCGGTTTCGGTTAGTGCTAG | 10.7 z-score |
| TTAGGTTTCGAACTGGGTTAGTGCTAG | 3.29 z-score |
| TTAGGTTTCGGACTGGGTGAGTGCTAG | 5.27 z-score |

Study 4 — method: RNA Bind-n-Seq; form: RNA; matrix: in vitro; tested at: 365 nM; relative to: no-protein control; reading: higher = stronger binding
Target: RNA binding protein fox-1 homolog 2, RRM domain, GST-SBP tag (RBFOX2, Homo sapiens, UniProt O43251-10, residues 100-194)
Notes: natural RNA segment, single round, ends assumed
All sequences stand within: GGGAGUUCUACAGUCCGACGAUC … UGGAAUUCUCGGGUGCCAA
Construct (chain): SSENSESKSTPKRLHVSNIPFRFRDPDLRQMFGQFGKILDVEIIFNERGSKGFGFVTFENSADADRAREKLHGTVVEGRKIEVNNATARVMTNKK
| Oligonucleotide | RBNS enrichment (R) |
| --- | --- |
| AUAAAGAAGGGCAGUGUGAACCCAGGCAGUUGAUGUCAUGAUUCCAUGUGGCCAGUCCUGUGGGACUUAGGGUCCCAACCUGUAUAUUCUGUCUCAAAGAACAUUAAACU | 0.264 |
| UGUUACUGAAAACUAGAUGUAAACUUAAGUAUUUAGAACAAAAACUACUAGUAAAUACUCAGAACUCUCCCUUCCUGUUGCCUUGCAUUUGGCCAUUAGACAAACUCCUG | 2.11 |
| UAACAGCCUUUUGUACAGAUAUCUACAAAUCAAACGAUGUCUCUAUCCAGUGCUUGCCCUCGGAGUGUCUUUAAAUGCACCAAGUGUACAAUAAAAACAUGGAAGUCAAU | 0.318 |
| CACCCCCACGGCUCUCCUGGUUGAGGAGGGAGGGGCCUGGCUGACCCCUCCAGCUUCAGCCUCCAGCUUUAACUUCUGUCUGCUCCUAAUGGGGGCCCAAAGCUCAGGGC | 0.306 |
| UCAUCCCCUUUGUCCUUUUGGGAAGCAAGUAUCUAUUCCAGUCUCAAGUCCUGCAGUUGCUGGAGCGCUUACGCACCUGAGCCCUUUGUGUCCUGGGGGAGAGAUGGCCA | 0.616 |
| UAAUUAAUGCCCCUCUCUUACAGAACACUCCUAUUUGUACCUCAACAAAUGCAAAUUUUCCCCGUUUGCCCUACGCCCCUUUUGGUACACCUAGAGGUUGAUUUCCUUUU | 0.887 |
| CAGAAGAACCCUUAGUGUCCACCUGGCCCUAUGUUUCCCAGAAUUCAAGCGGAAAACAUCUGAGAAUGGCUUUCCCAUAUUGCAUUACGGCAUGCAGAAGGCUUUAUUUU | 0.481 |
| UACCAUUACAACUGUUCUUUGCUGGACGGCACCCAGCUGUUCACCUCGCAUGACUACGGGGCCCCCCAGGAGGCGACUCUCGGGGCCAACAAGGUGAUCGAAGGCCUGGA | 1.42 |
| AAGGUGACUGGGAAUUGUUACUGUUGUACUUAUUCUAUCUUCCAUUUAUUAUUUAUGUACAAUUUGGUGUUUGUAUUAGCUCUACUACAGUAAAUGACUGUAAAAUUGUC | 0.667 |
| CCUUAAGCCUGUGGUAAAAGGGCUUCAGGGAAGGUAAGUGGGCCACCUGCUGGAAGCUGCCAGCUGCCCGGCUGGCAAUGGUGUGAGUGUCUUGGCCCUGUCCCUGCCCU | 0.336 |
| CUGGUUUGUUGUAUUAUAGUAUAUUUCGCUGUGGAAAAUGUCACGUUUAGUCACCUUGGAGCCCACUCACCUGGUCCUGUUGUUUUACCCCAUCCCUUCUCUCGCGCGCC | 0.418 |
| UUUUUUUCUUUUCUUCUUUAAGUAGCUGAAUGUAUAUAUCAGGGAGGAAGAAGCAAGCAAAACUGAGCUUGCCUUCUUCAAGAGUGACCCUUUCGGGCUCCUUUUUUAGG | 0.398 |

Repeated from above (study 3):
| Oligonucleotide | log fluorescence |
| --- | --- |
| TTAGGTCTCCATTTCCTTTAGTGCTAG | 0.424 z-score |
| TTAAGTATCCTTCTCCTTTAGTGCTAG | 0.592 z-score |
| GAGGGTTTCGGGTATCGGGACGTGCTA | 6.44 z-score |
| TTGGGTCTCCTTTTCCTTTAGTGCTAG | 0.106 z-score |
| CTGTTCTGCAGACTTCTGTCGTGCTAG | -0.113 z-score |
| TCAACTCTCTGCTTGTAACTGTGCTAG | 0.408 z-score |
| CTCTTCTTTTTTTTCTTTAAGTGCTAG | 1.15 z-score |
| TGTCTGTCTGTCACCCGGACGTGCTAG | 0.373 z-score |
| TTAGCTTCCGGTTTCGGTTAGTGCTAG | 9.94 z-score |
